Published values collected from several papers.
Lines come from different studies, so protocols differ. Values joined by “and” are separate records of one study, mostly repeats; a detail may differ. ± gives the spread as reported.
Chain of UniProt Q6PIU2 (whole entry, looked up): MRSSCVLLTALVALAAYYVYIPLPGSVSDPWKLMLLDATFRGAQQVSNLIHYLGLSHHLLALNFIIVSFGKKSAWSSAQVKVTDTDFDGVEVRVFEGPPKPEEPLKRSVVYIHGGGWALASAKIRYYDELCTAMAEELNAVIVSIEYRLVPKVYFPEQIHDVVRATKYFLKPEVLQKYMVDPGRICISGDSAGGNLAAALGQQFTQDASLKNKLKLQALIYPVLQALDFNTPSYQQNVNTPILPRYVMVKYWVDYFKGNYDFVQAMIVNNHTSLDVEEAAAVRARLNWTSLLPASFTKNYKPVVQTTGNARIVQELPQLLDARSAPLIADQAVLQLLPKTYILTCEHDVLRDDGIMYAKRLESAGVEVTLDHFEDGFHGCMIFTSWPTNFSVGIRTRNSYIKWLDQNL
Chain of UniProt P02716 (whole entry, looked up): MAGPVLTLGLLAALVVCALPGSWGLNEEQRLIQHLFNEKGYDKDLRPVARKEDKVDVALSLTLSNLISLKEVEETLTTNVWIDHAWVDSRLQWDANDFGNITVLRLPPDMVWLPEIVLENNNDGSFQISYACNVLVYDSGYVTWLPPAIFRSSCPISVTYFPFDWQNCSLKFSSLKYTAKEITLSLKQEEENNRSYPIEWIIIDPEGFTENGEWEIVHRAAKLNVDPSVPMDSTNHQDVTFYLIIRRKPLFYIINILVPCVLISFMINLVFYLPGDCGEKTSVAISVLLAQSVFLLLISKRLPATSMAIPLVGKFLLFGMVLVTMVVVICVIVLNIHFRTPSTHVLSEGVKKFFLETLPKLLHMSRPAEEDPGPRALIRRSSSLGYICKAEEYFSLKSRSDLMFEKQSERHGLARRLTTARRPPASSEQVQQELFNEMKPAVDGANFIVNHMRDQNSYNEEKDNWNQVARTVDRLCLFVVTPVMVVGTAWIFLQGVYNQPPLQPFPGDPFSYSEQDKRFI
Chain of UniProt P41595 (whole entry, looked up): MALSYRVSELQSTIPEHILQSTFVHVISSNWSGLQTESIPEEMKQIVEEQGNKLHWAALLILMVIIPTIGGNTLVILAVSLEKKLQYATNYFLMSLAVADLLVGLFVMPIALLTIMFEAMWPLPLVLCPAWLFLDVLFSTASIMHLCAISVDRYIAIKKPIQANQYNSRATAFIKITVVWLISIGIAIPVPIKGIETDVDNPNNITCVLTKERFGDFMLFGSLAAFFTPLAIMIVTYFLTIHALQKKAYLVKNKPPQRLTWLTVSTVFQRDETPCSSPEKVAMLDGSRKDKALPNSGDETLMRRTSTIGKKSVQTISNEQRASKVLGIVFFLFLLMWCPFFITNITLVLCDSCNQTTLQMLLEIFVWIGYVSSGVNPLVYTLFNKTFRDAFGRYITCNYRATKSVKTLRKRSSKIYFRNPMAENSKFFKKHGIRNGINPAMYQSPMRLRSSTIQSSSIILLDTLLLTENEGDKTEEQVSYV
Chain of UniProt Q9ULK4 (whole entry, looked up): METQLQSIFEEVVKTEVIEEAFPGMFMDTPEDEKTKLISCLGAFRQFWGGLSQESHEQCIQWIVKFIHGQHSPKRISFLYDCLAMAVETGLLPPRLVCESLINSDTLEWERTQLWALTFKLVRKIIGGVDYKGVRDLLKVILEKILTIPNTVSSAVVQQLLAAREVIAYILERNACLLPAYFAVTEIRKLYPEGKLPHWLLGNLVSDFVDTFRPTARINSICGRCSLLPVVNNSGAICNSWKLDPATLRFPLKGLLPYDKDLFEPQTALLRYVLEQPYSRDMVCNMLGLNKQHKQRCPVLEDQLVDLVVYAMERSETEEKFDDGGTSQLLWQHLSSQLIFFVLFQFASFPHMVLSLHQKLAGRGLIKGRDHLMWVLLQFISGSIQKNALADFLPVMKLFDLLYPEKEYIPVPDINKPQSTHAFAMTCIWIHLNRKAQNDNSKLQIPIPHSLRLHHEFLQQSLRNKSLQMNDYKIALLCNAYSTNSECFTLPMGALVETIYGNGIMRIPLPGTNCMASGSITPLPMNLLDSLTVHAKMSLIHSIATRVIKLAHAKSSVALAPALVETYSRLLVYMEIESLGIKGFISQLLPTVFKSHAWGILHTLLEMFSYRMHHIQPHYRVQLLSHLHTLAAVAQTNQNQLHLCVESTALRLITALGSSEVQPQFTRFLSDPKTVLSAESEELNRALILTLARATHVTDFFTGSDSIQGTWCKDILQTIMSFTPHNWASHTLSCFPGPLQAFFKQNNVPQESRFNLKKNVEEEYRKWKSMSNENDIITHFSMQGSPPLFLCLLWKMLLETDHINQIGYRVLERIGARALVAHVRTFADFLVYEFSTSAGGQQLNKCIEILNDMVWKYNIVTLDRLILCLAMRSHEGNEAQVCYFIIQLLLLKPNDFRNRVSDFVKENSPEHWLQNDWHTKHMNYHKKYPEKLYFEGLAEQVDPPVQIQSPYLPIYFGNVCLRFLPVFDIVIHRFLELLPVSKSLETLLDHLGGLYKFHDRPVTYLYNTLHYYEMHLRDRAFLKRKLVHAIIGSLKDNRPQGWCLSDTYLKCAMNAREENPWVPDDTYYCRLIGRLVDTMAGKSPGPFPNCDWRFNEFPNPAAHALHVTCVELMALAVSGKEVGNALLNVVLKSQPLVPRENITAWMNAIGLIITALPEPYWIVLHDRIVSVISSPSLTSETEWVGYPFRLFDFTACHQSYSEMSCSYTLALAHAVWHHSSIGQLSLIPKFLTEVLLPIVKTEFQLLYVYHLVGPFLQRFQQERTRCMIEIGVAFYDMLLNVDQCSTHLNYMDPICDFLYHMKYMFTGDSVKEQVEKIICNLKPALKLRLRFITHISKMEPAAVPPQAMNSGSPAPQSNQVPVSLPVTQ
Chain of UniProt P0A0C1 (whole entry, looked up): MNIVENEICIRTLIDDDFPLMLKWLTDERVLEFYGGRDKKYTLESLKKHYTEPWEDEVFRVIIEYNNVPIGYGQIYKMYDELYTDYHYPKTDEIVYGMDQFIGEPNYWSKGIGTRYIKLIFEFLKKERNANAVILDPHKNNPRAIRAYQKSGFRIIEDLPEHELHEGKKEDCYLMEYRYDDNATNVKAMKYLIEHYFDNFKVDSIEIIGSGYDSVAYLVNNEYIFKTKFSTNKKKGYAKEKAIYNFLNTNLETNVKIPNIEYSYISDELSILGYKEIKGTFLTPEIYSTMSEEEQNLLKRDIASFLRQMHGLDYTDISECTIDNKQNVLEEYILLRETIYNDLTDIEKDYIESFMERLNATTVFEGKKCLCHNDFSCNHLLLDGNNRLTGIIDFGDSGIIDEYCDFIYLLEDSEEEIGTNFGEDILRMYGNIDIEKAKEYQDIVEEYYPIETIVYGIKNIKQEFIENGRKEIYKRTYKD
Chain of UniProt P52699 (whole entry, looked up): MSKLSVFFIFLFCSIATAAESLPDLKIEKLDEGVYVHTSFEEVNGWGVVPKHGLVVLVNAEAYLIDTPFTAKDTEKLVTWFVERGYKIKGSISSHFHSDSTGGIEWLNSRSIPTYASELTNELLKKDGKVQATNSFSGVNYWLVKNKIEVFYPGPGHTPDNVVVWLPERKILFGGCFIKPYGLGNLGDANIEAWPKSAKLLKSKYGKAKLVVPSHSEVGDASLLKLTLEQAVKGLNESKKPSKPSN
Chain of UniProt P77488 (whole entry, looked up): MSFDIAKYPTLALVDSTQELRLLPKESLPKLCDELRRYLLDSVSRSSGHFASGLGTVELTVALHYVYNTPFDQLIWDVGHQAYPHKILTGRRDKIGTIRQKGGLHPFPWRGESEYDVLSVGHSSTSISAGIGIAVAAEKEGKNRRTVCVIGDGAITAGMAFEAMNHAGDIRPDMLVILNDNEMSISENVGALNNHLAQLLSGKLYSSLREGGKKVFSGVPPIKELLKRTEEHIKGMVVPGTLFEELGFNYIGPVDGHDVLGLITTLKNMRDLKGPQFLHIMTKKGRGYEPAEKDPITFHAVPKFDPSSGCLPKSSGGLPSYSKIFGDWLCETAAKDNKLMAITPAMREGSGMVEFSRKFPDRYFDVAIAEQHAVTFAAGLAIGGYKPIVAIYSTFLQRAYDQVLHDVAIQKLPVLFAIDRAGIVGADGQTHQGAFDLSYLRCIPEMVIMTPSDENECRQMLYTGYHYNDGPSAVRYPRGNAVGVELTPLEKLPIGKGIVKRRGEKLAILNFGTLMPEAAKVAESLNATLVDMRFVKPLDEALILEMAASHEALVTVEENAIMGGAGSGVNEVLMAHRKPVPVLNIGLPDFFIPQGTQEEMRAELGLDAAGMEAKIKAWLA
Chain of UniProt Q99788 (whole entry, looked up): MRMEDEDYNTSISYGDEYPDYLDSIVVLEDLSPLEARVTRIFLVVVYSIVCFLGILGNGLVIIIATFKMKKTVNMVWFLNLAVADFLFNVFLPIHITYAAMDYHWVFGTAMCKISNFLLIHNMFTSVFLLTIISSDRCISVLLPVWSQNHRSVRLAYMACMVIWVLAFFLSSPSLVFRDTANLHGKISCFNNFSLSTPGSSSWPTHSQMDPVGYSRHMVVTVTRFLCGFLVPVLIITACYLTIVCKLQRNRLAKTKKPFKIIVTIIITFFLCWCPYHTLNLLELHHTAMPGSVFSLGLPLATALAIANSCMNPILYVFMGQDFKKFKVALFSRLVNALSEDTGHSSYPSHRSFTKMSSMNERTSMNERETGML
Chain of UniProt Q06520 (whole entry, looked up): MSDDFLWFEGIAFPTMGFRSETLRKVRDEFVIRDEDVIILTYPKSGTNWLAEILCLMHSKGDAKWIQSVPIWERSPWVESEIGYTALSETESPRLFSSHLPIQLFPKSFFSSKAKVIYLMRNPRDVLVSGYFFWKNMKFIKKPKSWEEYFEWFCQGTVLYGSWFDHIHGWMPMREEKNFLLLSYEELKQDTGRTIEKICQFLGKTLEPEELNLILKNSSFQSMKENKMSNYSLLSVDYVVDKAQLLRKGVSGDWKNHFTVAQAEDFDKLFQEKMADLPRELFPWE

[2H]c1c([2H])c([C@]2([2H])CCCN2C(=O)C(C)(C)Oc2ccc3cn[nH]c3c2)c([2H])c([2H])c1C([2H])([2H])[2H] — remaining binding (Tyrosine-protein kinase CSK (CSK, Homo sapiens, UniProt P41240); KINOMEscan; 1 µM; relative to: DMSO control): 88%
C[C@H]1CN(c2n[nH]c3nc(N[C@H]4CC[C@H](NS(=O)(=O)CCC(F)(F)F)CC4)ncc23)CCO1 — relative abundance (Mediator of RNA polymerase II transcription subunit 23 (MED23, Homo sapiens, UniProt Q9ULK4); inhibitor, Kinobeads competition profiling; 0.032 µM; relative to: vehicle): 1.02
CC(=O)P(=O)(O)OCCc1cn([C@H](Cc2ccccc2)C(=O)O)nn1 — IC15 (1-deoxy-D-xylulose-5-phosphate synthase (dxs, Escherichia coli, UniProt P77488); enzyme activity, inhibitor; with: 2 x Km pyruvate): < 0.065 µM
Clc1ccc(COc2cccc(CNCc3cccnc3)c2)cc1 — highest concentration without inhibition (aacA-aphD, AAC(6')-Ie domain (Staphylococcus aureus, UniProt P0A0C1); neomycin acetylation, inhibitor; with: neomycin): > 200 µM
Nc1ncc(-c2nc(N3CCOCC3)nc(N3CCOCC3)n2)c(C(F)F)n1 — remaining binding (Ribosomal protein S6 kinase alpha-2, N-terminal kinase domain (RPS6KA2, Homo sapiens, UniProt Q15349); KINOMEscan; 10 µM): 44%
CC(C)(O/N=C(\C(=O)N[C@@H]1C(=O)N2C(C(=O)[O-])=C(C[N+]3(CCNC(=O)c4ccc(O)c(O)c4Cl)CCCC3)CS[C@H]12)c1csc(N)n1)C(=O)O — Km (Metallo-beta-lactamase type 2 (Serratia marcescens, UniProt P52699); substrate, UV spectrophotometry; pH 7.5, 30 °C): 302 µM
COc1ccc(N2C(=O)N(c3c(C)cccc3Cl)Cc3cnc(Nc4ccc(C5CCN(C)CC5)cc4OC)nc32)nc1 — inhibition (Homeodomain-interacting protein kinase 2 (HIPK2, Homo sapiens, UniProt Q9H2X6); kinase activity; 0.5 µM): 4%
CC[N+]1(C)CCN(c2ccccc2Cl)CC1.[I-] — ACh response (Nicotinic acetylcholine receptor alpha1/beta1/epsilon/delta (Mus musculus, UniProt P02716+P04756+P09690+P20782); ion current, inhibitor, two-electrode voltage clamp; Xenopus oocytes; 30 µM, after co-application, unit not given, with: ACh 30 µM; relative to: ACh alone): 0.638 ± 0.182
CNC(C)Cc1ccc2n[se]nc2c1 (stereo not shown) — Emax (5-hydroxytryptamine receptor 2B (HTR2B, Homo sapiens, UniProt P41595); agonist; relative to: 5-HT): 50.6 ± 6.5%
CC[C@H](CO)Nc1nc(NCc2ccccc2)c2ncn(C(C)C)c2n1 — binding score (Dual specificity tyrosine-phosphorylation-regulated kinase 1A (DYRK1A, Homo sapiens, UniProt Q13627); KINOMEscan competition binding; 10 µM, primary screen; direction not given): 6.4
CN(C(=O)n1cnc(-c2ccc[n+]([O-])c2)c1)C1CCCCC1 — inhibition (Calcium/calmodulin-dependent protein kinase type II subunit delta (CAMK2D, Homo sapiens, UniProt Q13557); enzyme activity; 10 µM, with: autocamtide-2): 13%
COC(=O)[C@@]1(O)C[C@H]2O[C@]1(C)n1c3ccccc3c3c4c(c5c6ccccc6n2c5c31)C(=O)NC4 — remaining activity (Mitogen-activated protein kinase 3 (MAPK3, Homo sapiens, UniProt P27361); ADP-Glo; 1.43 µM, with: substrate MBP): 112%
Oc1c(Cl)cc(-c2ccccc2)cc1Cl — Km (Sulfotransferase 2A1 (SULT2A1, Homo sapiens, UniProt Q06520); substrate, HPLC; pH 7.0, 37 °C, with: 200 µM PAPS): 8.5 ± 1.8 µM
O=C(c1ccc(Cl)cc1)N1CCN2C(=O)N(OC(=O)N3CCOc4ccccc43)C(=O)C2C1 (stereo not shown) — peptide ratio (Neutral cholesterol ester hydrolase 1 (NCEH1, Homo sapiens, UniProt Q6PIU2); MS-based ABPP; SW-620 conditioned medium; 10 µM, 1 h, 37 °C; relative to: compound over DMSO, lower = more inhibition): 1.24 and 1.35 and 1.14 and 1.41 and 1.37 and 1.33
Cc1ccc([C@H]2C[C@@H]2COc2cc(NCc3nnc(C)s3)nc(C)n2)nc1 — selectivity ratio (High affinity cGMP-specific 3',5'-cyclic phosphodiesterase 9A (PDE9A, Homo sapiens, UniProt O76083); enzyme activity, inhibitor, IMAP fluorescence polarization; isoform PDE9A2; relative to: Ki target over Ki PDE10A2): > 1.88e+06 fold
CN1CCN(c2cc(-c3ccncc3)c(-c3ccc4ccccc4c3)nn2)CC1 — activation (Chemerin-like receptor 1 (CMKLR1, Homo sapiens, UniProt Q99788); agonist, FLIPR calcium; 12.5 µM): 1%

For quick reference, copied from above:
CC(=O)P(=O)(O)OCCc1cn([C@H](Cc2ccccc2)C(=O)O)nn1 — IC15 (1-deoxy-D-xylulose-5-phosphate synthase (dxs, Escherichia coli, UniProt P77488); enzyme activity, inhibitor; with: 2 x Km pyruvate): < 0.065 µM
